# Assay results from different studies.
# Every numbered part comes from another study and shows a few of its results, in no order. Changes are numbered by the printed parent chain.

# Series 1
# Target: Interferon regulatory factor 7, full length, phosphomimetic (IRF7, Homo sapiens, UniProt Q92985, residues 1-503, S471D/S472D/S475D/S476D/S477D/S483D/S484D/S487D)
# Technique: protein-binding microarray
# Molecule type: double-stranded DNA, one strand shown
# Medium: in vitro
# Concentration: 2200 nM top
# Notes: 60-bp whole probe
# With: salmon DNA 0.4 mg/ml
# Reference: random background probes
# Reading: higher = stronger binding
# Constant ends, left off below: GCCTAGCAC … GTCTTGATTCGCTTGACGCTGCTG
# Target sequence (chain): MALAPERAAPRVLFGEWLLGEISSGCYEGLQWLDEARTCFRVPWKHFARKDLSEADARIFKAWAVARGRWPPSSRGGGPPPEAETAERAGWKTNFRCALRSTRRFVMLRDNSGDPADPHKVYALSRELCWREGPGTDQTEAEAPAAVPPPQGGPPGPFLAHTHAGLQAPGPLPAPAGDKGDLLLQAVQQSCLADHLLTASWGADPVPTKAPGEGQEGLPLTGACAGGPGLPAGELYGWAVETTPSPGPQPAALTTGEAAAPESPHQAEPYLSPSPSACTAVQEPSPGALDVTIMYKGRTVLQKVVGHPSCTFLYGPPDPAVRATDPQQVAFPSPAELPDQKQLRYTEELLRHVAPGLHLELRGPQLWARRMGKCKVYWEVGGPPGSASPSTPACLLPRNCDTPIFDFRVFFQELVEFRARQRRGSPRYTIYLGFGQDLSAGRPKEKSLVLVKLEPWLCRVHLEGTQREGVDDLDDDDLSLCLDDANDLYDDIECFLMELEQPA
Strand,fitted relative affinity
GACGATATCGGACTGGAGACGTGCTAG,0.149 z-score
CTCTACCTCGTCATAGTAACGTGCTAG,1.37 z-score
TTGGGACTGGGTTTCGGTTAGTGCTAG,3.56 z-score
TTAGGTATCGGGTTTCGGTTGGTGCTA,5.15 z-score
GTCTCTTGTTCTCTCTGGCCGTGCTAG,1.93 z-score
GACGGAGTGCTTCTCCTGACGTGCTAG,0.519 z-score
GAGGGTTTCGGGTATCGGGACGTGCTA,3.47 z-score
TTAGGACTGGGGTCTGGGTTAGTGCTA,-0.853 z-score
TTAGGTCTCGGTATCGGATAGTGCTAG,0.545 z-score
TTAGGCTTCGGTATCGGTTAGTGCTAG,0.424 z-score
GACGATCTCAGACTGGAGATGTGCTAG,-0.214 z-score

# Series 2
# Target: JUN, bZIP domain (human)
# Technique: DHFR protein complementation
# Medium: yeast
# Notes: single substitutions, most at no-binding floor
# Reference: wild-type JUN-FOS pair
# Reading: higher = stronger binding
# Starting sequence: JUN, bZIP domain (human); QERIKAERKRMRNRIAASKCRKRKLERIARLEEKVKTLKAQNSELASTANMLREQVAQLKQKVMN; partner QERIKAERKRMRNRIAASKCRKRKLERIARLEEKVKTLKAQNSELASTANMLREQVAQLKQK
Change,binding fitness [natural log]
S43K,-0.0218
E33D,-0.308
L52M,-0.967
Q58G,-0.357
I28A,-0.728
A57K,-0.137
S43H,-0.17
K39A,-0.392
Q41T,-0.463
A40Q,0.0476

# Series 3
# Target: Prothrombin, mature alpha-thrombin (F2, Homo sapiens, UniProt P00734)
# Technique: aptamer microarray, sandwich
# Molecule type: DNA with 2'F-ANA
# Medium: in vitro
# Concentration: 200 nM
# Notes: whole 15-mer aptamer, many near background
# With: Cy3 exosite-II aptamer, 400 nM
# Reading: higher = stronger binding
# Strand: GGTTGGTGTGGTTGG
Modification,mean fluorescence intensity [a.u.]
2'F-ANA at 1 2 4 5 7 8 9 10 13,64.1
2'F-ANA at 2 4 5 6 7 8 9,92.9
2'F-ANA at 1 3 4 6 7 13 14,84.5
2'F-ANA at 2 3 10 11 12 14 15,278
2'F-ANA at 2 4 5 6 9 11 13 14,46
2'F-ANA at 1 6 7 8 13 15,156
2'F-ANA at 4 6 7 8 9 11 13 15,179
2'F-ANA at 1 5 9 10 11 12 15,48.9
2'F-ANA at 2 3 4 5 7 8 9 10 11 12 14 15,50.1
2'F-ANA at 1 2 5 6 11 12 13,63.9
2'F-ANA at 2 3 7 9 10 14 15,294
2'F-ANA at 1 2 3 6 11 12 13 15,299
2'F-ANA at 2 3 6 8 9 10 12 14,293
2'F-ANA at 5 8 10 11 12 13 14 15,45.9
2'F-ANA at 2 5 8 9 10 11 13 14,51.9
2'F-ANA at 4 6 7 8 12 13 14 15,110
2'F-ANA at 1 2 7 12 14 15,71.5
2'F-ANA at 1 8 9 10 14 15,47.6
2'F-ANA at 1 5 6 8 9 10 12 13,46.5
2'F-ANA at 5 6 7 8 10 12 13 15,50
2'F-ANA at 1 3 6 8 9 10 12,103
2'F-ANA at 1 2 5 7 8 10 11 12 13 15,48.3
2'F-ANA at 4 6 7 8 10 12 13,85.4

# Series 4
# Target: UBE2Q2 UBC core domain (UniProt Q8WVN8)
# Sequence of UniProt Q8WVN8 (whole entry, looked up): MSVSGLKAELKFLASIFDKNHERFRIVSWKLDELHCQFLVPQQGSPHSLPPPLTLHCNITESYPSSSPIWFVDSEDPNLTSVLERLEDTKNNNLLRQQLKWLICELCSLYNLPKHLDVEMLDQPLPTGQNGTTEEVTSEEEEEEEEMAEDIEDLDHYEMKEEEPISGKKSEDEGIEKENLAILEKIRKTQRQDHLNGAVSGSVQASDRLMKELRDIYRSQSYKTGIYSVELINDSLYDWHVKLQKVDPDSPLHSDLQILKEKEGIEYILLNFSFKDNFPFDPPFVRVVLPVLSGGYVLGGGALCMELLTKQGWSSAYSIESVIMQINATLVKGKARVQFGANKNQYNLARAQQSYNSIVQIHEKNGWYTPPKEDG
# Technique: yeast two-hybrid
# Medium: yeast
# Notes: mostly zero background
# Reference: not given
# Reading: higher = stronger interaction
# B1: DTX1 RING domain (UniProt Q86Y01); chain QKVKNPPDEDCTICMERLVTASGYEGVLRHKGVRPELVGRLGRCGHMYHLLCLVAMYSNGNKDGSLQCPTCKAIYGEKTGTQ
# B2: Ltn1 RING domain (UniProt Q6A009); chain VDKRFEGVEDCMICFSVIHGFNYSLPKKACRTCKKKFHSACLYKWFTSSNKSTCPLCRETFF
# B3: TRIM48 RING domain (UniProt Q8IWZ4); chain ISQVFQRELTCPICMNYFIDPVTIDCGHSFCRPCFYLNWQDIPILTQCFECIKTIQQRNLKT
# B4: RNF135 RING domain (UniProt Q8IUD6); chain PVWLAEDDLGCIICQGLLDWPATLPCGHSFCRHCLEALWGARDARRWACPTCRQGAAQQPHLR
Sequence,lacZ reporter activity
B1 (DTX1 RING domain),0
MDDQGCPRCKTTKYRNPSLKLMVNVCGHTLCESCVDLLFVRGAGNCPECGTPLRKSNFRV (MNAT1 RING domain (UniProt P51948)),0
B2 (Ltn1 RING domain),0
B3 (TRIM48 RING domain),0
KEQLEKHNDICAICYQDMKSAVITPCSHFFHAGCLKKWLYVQETCPLCHCHLKNSSQLP (RNF145 RING domain (UniProt Q96MT1)),0
B4 (RNF135 RING domain),0
KLWDINAHITCRLCSGYLIDATTVTECLHTFCRSCLVKYLEENNTCPTCRIVIHQSHPLQ (PCGF3 RING domain (UniProt Q3KNV8)),0

# Series 5
# Target: ABI1, truncated, D143A, DHFR fusion (Arabidopsis thaliana)
# Technique: DHFR PCA, deep sequencing
# Medium: yeast
# Notes: methotrexate growth selection, single substitutions
# With: (+)-ABA 710 µM
# Reference: wild-type fitted maximum
# Reading: higher = stronger binding
# Starting sequence: PYL1, truncated, DHFR fusion (Arabidopsis thaliana); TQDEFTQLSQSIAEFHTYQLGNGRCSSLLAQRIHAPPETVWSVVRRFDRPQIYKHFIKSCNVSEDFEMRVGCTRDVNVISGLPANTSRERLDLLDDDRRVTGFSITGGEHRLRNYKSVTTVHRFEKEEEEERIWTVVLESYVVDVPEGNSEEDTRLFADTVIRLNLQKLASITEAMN; partner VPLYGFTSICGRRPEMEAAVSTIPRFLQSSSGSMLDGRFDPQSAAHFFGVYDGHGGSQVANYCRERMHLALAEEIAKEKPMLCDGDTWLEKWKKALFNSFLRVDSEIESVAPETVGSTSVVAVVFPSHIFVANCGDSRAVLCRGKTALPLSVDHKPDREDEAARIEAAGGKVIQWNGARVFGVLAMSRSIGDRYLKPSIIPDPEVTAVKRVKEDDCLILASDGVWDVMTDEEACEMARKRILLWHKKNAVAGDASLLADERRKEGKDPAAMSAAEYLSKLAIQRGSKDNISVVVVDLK
Change,relative binding score [%]
S27P,-20.4
Y53V,58.3
I33E,-15.8
T73L,97
S150W,65.9
P36K,102
L166G,9.53
E130K,115
G71Y,52.8
D144N,95
E131I,107
E152S,101
L93A,99.9
G148A,90.2
V70G,81.2
D75L,105
C60M,73.9

# Series 6
# Target: Histone acetyltransferase KAT6A, both winged helices, GST fusion (KAT6A, Homo sapiens, UniProt Q92794, residues 1-181)
# Technique: protein binding microarray
# Molecule type: double-stranded DNA, one strand shown
# Medium: in vitro
# Concentration: not given
# Notes: 8-mer, flanks averaged, mean of 2 arrays, mostly near background
# Reference: not given
# Reading: higher = stronger binding
# Residues (chain): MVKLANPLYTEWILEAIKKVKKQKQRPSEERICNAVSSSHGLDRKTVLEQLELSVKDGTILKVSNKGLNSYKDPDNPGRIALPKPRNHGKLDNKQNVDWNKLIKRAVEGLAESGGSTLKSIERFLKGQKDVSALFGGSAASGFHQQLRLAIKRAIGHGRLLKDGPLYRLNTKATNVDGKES
Strand,E-score
CGCAGGCC,0.162
AAGACAAA,0.0151
CCAGCAGG,-0.223
CGAACGCA,0.123
CTTGTGTA,-0.0497
ACGGCGTG,0.314
TATACCCA,-0.0808
ATTGTGCG,0.226
GGGTCATA,-0.0414
TATCGACA,0.0394
ACGGAATA,0.263
AGTACCTA,-0.141
GGGTTCGA,0.00044
CGGACTTC,0.238
CTGGCCCA,-0.227
ATCTGCAT,-0.144
GCTGCCTA,-0.179
ATAATTCG,0.00702
ACTGCCAA,-0.0496
CCCGCGGC,0.389

# Series 7
# Target: CCND1, cyclin fold, Cln2 fusion (human)
# Technique: yeast growth competition, sequencing
# Medium: yeast
# Notes: strong parent motif
# Reference: not given
# Reading: higher = stronger binding
# Starting sequence: E2F1 docking peptide (human); PPVKRRLDFETDH
Change,normalised enrichment score
PPVKRRLKFETDH [D8K],1.55
PPVKRRLLFETDH [D8L],1.88
PPVKNRLDFETDH [R5N],0.539
PPVKRRLDFDTDH [E10D],3.61
PPVIRRLDFETDH [K4I],3.57
PPVKRMLDFETDH [R6M],1.33
PPVKRRLDTETDH [F9T],0.164
PPVKRRGDFETDH [L7G],-0.292
PPVKFRLDFETDH [R5F],0.794
PPVKQRLDFETDH [R5Q],0.606
PPVKRWLDFETDH [R6W],0.57
PPVKRILDFETDH [R6I],1.33
PPVKHRLDFETDH [R5H],0.0201
PPNKRRLDFETDH [V3N],-0.148
PPYKRRLDFETDH [V3Y],0.258
PPVVRRLDFETDH [K4V],2.66
PPVYRRLDFETDH [K4Y],1.38
PPVKRRLDGETDH [F9G],-0.0549
PPVKRRLDFETAH [D12A],2.79
PPVKRRLDFEVDH [T11V],2.85
PIVKRRLDFETDH [P2I],1.35
PPVKRLLDFETDH [R6L],1.13
PPVKARLDFETDH [R5A],0.391
PPRKRRLDFETDH [V3R],0.00841
PPVKRRLDFETLH [D12L],2.82

# Excerpt of the above (series 7):
Change,normalised enrichment score
PPVKRRLDGETDH [F9G],-0.0549
PPYKRRLDFETDH [V3Y],0.258
PPVKQRLDFETDH [R5Q],0.606
PPVKRRGDFETDH [L7G],-0.292
PPVYRRLDFETDH [K4Y],1.38
PPVKRRLDFEVDH [T11V],2.85
PPRKRRLDFETDH [V3R],0.00841
PPVKRRLLFETDH [D8L],1.88
PIVKRRLDFETDH [P2I],1.35
PPVKRWLDFETDH [R6W],0.57
PPVKRMLDFETDH [R6M],1.33
PPVKRRLDFETLH [D12L],2.82
PPVKRRLDFETAH [D12A],2.79
PPVKRILDFETDH [R6I],1.33
PPVKRRLDFDTDH [E10D],3.61
PPVKNRLDFETDH [R5N],0.539
PPNKRRLDFETDH [V3N],-0.148
PPVVRRLDFETDH [K4V],2.66
